Published values of several laboratories.
Each line is one published result; not all experiments were run side by side. ± gives the spread as reported.
SULT2A1: Sulfotransferase 2A1 (SULT2A1, Homo sapiens, UniProt Q06520)
Sequence of UniProt Q06520 (whole entry, looked up): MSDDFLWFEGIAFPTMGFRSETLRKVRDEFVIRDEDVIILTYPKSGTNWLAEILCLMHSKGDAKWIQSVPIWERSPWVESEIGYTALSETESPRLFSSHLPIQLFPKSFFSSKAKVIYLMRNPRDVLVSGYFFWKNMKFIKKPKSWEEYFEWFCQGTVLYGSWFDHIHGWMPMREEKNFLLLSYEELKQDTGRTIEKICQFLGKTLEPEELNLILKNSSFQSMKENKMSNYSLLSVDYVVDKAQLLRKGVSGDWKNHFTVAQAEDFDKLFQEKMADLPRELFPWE
Acy3: N-acyl-aromatic-L-amino acid amidohydrolase (carboxylate-forming) (Acy3, Mus musculus, UniProt Q91XE4)
Sequence of UniProt Q91XE4 (whole entry, looked up): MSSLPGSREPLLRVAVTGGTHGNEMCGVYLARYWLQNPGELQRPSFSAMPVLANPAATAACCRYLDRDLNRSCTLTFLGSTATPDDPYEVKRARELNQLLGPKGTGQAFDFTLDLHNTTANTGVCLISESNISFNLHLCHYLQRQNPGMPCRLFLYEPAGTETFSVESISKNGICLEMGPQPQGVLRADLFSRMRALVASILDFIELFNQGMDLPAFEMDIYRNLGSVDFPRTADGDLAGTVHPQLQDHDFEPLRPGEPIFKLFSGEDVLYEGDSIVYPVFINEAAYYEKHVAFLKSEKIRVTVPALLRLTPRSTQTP
Sequence of UniProt Q7Z5P4 (whole entry, looked up): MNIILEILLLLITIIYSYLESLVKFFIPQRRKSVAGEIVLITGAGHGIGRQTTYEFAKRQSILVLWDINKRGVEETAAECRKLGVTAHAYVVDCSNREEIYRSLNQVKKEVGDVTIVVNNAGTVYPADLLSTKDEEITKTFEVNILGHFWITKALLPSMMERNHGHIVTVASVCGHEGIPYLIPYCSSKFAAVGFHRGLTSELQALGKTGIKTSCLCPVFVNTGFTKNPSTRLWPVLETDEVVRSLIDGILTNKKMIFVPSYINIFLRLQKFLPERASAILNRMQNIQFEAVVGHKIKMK
Sequence of UniProt P09546 (whole entry, looked up): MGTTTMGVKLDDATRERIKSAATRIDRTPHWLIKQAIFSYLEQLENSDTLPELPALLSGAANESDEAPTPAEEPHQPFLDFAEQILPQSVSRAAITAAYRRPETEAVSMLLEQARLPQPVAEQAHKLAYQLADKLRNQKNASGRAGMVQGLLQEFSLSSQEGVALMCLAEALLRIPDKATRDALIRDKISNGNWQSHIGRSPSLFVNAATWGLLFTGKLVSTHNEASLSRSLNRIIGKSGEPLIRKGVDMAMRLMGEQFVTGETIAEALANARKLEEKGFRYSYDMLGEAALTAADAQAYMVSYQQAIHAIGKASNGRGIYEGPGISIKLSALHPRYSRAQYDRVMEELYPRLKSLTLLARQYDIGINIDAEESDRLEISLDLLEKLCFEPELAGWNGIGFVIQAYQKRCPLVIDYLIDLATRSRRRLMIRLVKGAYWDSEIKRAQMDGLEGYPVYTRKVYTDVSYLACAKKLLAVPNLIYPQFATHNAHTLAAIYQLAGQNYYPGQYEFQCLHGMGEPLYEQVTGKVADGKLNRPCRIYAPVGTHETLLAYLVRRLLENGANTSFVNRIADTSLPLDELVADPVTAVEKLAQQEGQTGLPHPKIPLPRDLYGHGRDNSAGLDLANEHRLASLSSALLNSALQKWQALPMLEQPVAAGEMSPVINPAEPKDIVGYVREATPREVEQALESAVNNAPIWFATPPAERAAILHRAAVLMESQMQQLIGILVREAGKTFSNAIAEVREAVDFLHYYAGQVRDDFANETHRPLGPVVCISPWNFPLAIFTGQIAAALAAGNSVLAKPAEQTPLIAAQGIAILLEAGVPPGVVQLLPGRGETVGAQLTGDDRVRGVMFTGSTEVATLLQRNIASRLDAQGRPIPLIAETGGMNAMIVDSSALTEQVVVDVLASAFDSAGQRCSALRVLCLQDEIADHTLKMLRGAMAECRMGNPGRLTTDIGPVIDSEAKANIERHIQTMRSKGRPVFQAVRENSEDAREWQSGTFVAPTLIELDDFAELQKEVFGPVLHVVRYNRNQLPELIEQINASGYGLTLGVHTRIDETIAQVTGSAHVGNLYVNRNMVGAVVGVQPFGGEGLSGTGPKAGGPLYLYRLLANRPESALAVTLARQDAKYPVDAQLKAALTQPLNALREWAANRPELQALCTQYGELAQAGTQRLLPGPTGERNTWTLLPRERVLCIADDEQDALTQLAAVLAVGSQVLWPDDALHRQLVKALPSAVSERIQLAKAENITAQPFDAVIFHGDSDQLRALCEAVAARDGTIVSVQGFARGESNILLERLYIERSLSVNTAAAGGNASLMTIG
Sequence of UniProt P22309 (whole entry, looked up): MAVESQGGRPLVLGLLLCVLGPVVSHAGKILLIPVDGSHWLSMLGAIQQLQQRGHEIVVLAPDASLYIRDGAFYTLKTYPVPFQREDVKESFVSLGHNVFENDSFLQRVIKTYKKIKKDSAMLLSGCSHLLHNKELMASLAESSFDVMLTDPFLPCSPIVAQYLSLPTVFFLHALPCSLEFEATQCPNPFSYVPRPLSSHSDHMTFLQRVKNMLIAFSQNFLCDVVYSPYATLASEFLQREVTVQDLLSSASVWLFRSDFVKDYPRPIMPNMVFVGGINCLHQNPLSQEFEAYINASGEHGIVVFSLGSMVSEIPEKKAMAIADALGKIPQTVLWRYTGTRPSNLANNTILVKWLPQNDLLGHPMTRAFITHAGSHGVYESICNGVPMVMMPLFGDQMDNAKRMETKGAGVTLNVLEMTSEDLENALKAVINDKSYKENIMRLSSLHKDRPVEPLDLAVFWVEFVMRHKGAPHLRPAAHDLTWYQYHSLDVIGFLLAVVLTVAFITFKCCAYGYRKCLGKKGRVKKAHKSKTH
Sequence of UniProt P34969 (whole entry, looked up): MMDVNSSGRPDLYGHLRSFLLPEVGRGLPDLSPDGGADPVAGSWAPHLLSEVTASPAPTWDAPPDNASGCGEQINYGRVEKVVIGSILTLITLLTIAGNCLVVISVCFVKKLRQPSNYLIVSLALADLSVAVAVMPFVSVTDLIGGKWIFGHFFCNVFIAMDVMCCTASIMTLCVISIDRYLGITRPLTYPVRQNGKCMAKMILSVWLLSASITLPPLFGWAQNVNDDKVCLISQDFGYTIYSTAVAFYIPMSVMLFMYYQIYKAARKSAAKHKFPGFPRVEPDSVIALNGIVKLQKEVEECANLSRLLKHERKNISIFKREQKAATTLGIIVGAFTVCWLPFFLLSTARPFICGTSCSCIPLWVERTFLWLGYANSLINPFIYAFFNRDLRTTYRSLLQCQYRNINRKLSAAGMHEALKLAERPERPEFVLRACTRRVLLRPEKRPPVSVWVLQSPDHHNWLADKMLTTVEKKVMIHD

| Compound | target | test | conditions | Ki |
| --- | --- | --- | --- | --- |
| Cn1cc2c(C(=O)O)ccc(NS(=O)(=O)c3ccc(OCC4CCC4)c(Cl)c3)c2n1 | 17-beta-hydroxysteroid dehydrogenase 13 (Homo sapiens, UniProt Q7Z5P4) | – | – | 0.069 µM |
| Oc1c(Cl)cc(-c2ccc(F)cc2)cc1Cl | SULT2A1 | substrate | pH 7.0, 37 °C, added: PAPS 200 µM | 323 ± 232 µM |
| CC(C)Cc1ccc(C(C)C(=O)O)cc1 (stereo not drawn) | Acy3 | – | – | 40 µM |
| Cc1nn(-c2ccc(F)cc2)c(=O)c2nocc12 | NMDA receptor | binding, radioligand displacement | added: [3H]MK-801 | > 10 µM |
| Cc1ccc([C@H]2C[C@@H]2COc2cc(NCc3nnc(C)s3)nc(C)n2)nc1 | GMP-stimulated 3',5'-cyclic nucleotide phosphodiesterase, PDE2A3 isoform (Macaca mulatta, UniProt B3VTJ2) | enzyme activity, inhibitor | – | 29.4 µM |
| O=C(c1cc(Cc2n[nH]c(=O)c3ccccc23)ccc1F)N1CCN(C(=O)C2CC2)CC1 | UGT1A1 (Homo sapiens, UniProt P22309) | enzyme activity, inhibitor | – | 48.4 µM |
| Cc1nn(-c2cc(Cl)cc(Cl)c2)c(=O)c2nocc12 | NMDA receptor | binding, radioligand displacement | added: [3H]MK-801 | > 10 µM |
| Oc1c(Cl)cc(-c2cccc(F)c2)cc1Cl | SULT2A1 | substrate | pH 7.0, 37 °C, added: PAPS 200 µM | 219 ± 70.1 µM |
| Cc1nn(-c2ccc([N+](=O)[O-])cc2)c(=O)c2nocc12 | NMDA receptor | binding, radioligand displacement | added: [3H]MK-801 | > 10 µM |
| COc1ccc(N2CCN(Cc3cn4c(-c5ccc(Br)cc5)nnc4s3)CC2)cc1 | FSP1 | coenzyme Q1 reduction, competitive inhibitor | pH 7.2, added: NADH varied, coenzyme Q1 | 0.315 ± 0.03 µM |
| COc1ccc(-n2nc(C)c3conc3c2=O)cc1 | NMDA receptor | binding, radioligand displacement | added: [3H]MK-801 | > 10 µM |
| CNC(=O)[C@@]12C[C@@H]1[C@@H](n1cnc3c(NC)nc(C#C[c-]4cccc4)nc31)[C@H](O)[C@@H]2O.[Fe+2].c1cc[cH-]c1 | HTR7 (Homo sapiens, UniProt P34969) | radioligand binding (PDSP) | – | 0.898 µM |
| O=C(O)[C@@H]1CCC=N1 | putA (Escherichia coli, UniProt P09546) | product competitive inhibitor | pH 7.4, 20 °C, DL form, L-isomer concentration, added: CoQ1 co-substrate, proline varied | 640 ± 40 µM |
| CC(=O)N[C@@H](CS)C(=O)O | Acy3 | – | – | 3000 µM |
| Cc1nn(-c2ccc(F)cc2F)c(=O)c2nocc12 | NMDA receptor | binding, radioligand displacement | added: [3H]MK-801 | > 10 µM |

A few entries again:
| Compound | target | test | conditions | Ki |
| --- | --- | --- | --- | --- |
| COc1ccc(-n2nc(C)c3conc3c2=O)cc1 | NMDA receptor | binding, radioligand displacement | added: [3H]MK-801 | > 10 µM |
| CNC(=O)[C@@]12C[C@@H]1[C@@H](n1cnc3c(NC)nc(C#C[c-]4cccc4)nc31)[C@H](O)[C@@H]2O.[Fe+2].c1cc[cH-]c1 | HTR7 (Homo sapiens, UniProt P34969) | radioligand binding (PDSP) | – | 0.898 µM |
